Assay results gathered from unrelated publications.
Lines come from different studies, so protocols differ. ± marks the error that the study gave.

| SMILES | test | test system | setting | scale | quantity | value |
| --- | --- | --- | --- | --- | --- | --- |
| O=C(c1ccc(F)cc1)C(F)(F)CCN1CCC(O)(c2ccc(Cl)cc2)CC1 |  | mouse liver microsomes |  |  | ketone metabolite formation | not detected |
| C[C@]1(O)C[C@@](N)(c2ccc(-c3nc4n(c3-c3ccccc3)COc3ccncc3-4)cc2)C1 |  | human, advanced or metastatic solid tumours | dose not given, all patients |  | patients with grade ≥3 TEAE | 88.2% |
| O=C1Nc2cc3[nH]nc(-c4ccncc4)c3cc2CN1Cc1ccccc1 | CTCAE v4.03 | advanced solid tumour patients | intravenous, 3.6 mg/kg |  | patients with infusion reaction | 0% |
| CCc1ccc(CC/C=C/c2ccc3c(c2)C(=O)CC3)cc1 |  | Sprague-Dawley rat, female | oral, 120 mg/kg/day, 14 days |  | Basophil percentage | 0.27% |
| COc1ccc(CCC2CCCC(CCc3ccc(OC)cc3)N2C[C@@H](O)CO)cc1.Cl (stereo in doubt) |  | rabbit Purkinje fibres | 0.1 µM, cycle length 1 s | reference: baseline | Vmax change | 3.9 ± 4.7% |
| Cc1cc(C)c(CNC(=O)c2cc(Cl)c3c(c2C)O[C@@](C)([C@H]2CC[C@H](N(C)C)CC2)O3)c(=O)[nH]1 |  | human, relapsed/refractory NHL | treatment-related TEAEs, grade 5 |  | Coagulopathy incidence | 0% |
| O=C(Nc1ccccc1)C1CCN(C(=O)Oc2cccnc2)CC1 |  | healthy women | oral, 20 mg, 7 days |  | adverse event Constipation | 7.1% |
| CN1CC[C@@H](c2c(O)cc(O)c3c(=O)cc(-c4ccc(C(F)(F)F)cc4Cl)oc23)[C@@H]1CO | item: Pneumonia | relapsed B-cell malignancies or AML | oral, 50 mg, grade 3-4, continuous dosing |  | patients with adverse event | 0% |
| CC(C)C(=O)OC[C@H]1O[C@@H](n2ccc(NO)nc2=O)[C@H](O)[C@@H]1O |  | rat amniotic fluid dialysate | 250 ng/mL, high concentration, three cycles, added: NHC 1000 ng/mL |  | freeze-thaw stability | 97.7 ± 1.14% |
| COc1cc(C=CC(=O)C=Cc2cc(OC)c(OC)c(OC)c2)cc(OC)c1OC | acridine orange staining | zebrafish (Danio rerio) larvae | up to 25 µM, larvae at 96 hpf |  | apoptosis | no effect |
| [2H]C([2H])([18F])[C@]([2H])(N)C(=O)O | PET | athymic nude mice, U-87 MG | dose not given, 15 min post-injection | reference: tumour over muscle | tumour-to-muscle ratio | 1.07 ± 0.18 |
| O=S(=O)(Nc1ccccc1)c1ccc(NC(=S)Nc2ccccc2)cc1 |  | mouse, male, blood | oral, 80 mg/kg daily, 14 days |  | mean corpuscular haemoglobin | 14.9 pg |
| COc1c(C)cnc(Cn2cc(C#CCCOP(=O)(O)O)c3c(Cl)nc(N)nc32)c1C |  | human, advanced solid tumours | intravenous infusion, twice weekly, 21-day cycles |  | maximum tolerated dose | 144 mg/m² |
| C=CC(=O)N1CC[C@H](n2nc(C#Cc3cc(OC)cc(OC)c3)c3c(N)ncnc32)C1 |  | patients with advanced solid tumours | oral, dose not given, Hyperphosphatemia, any grade, QD, added: lanthanum carbonate hydrate |  | adverse drug reaction incidence | 100% |
| CN[C@@H](C)C(=O)N[C@H]1CN(S(=O)(=O)c2cccc(S(=O)(=O)N3CC[C@H]4CC[C@@H](C(=O)NC(c5ccccc5)c5ccccc5)N4C(=O)[C@@H](NC(=O)[C@H](C)NC)C3)c2)CC[C@H]2CC[C@@H](C(=O)NC(c3ccccc3)c3ccccc3)N2C1=O |  | patients with advanced solid tumours | 30 mg, phase I monotherapy |  | treatment-related facial nerve disorder incidence | 0% |
| CNC(=O)c1cc(Oc2ccc(NC(=O)Nc3ccc(Cl)c(C(F)(F)F)c3)cc2)ccn1 |  | patients with advanced solid tumours | once daily, days 1-21, every 3 weeks, added: gemcitabine, carboplatin |  | MTD | 400 mg |
| CC[C@H](C)[C@H](NC(=O)[C@H](Cc1ccccc1)NC(=O)[C@H](CCC(=O)O)NC(=O)[C@H](CCCNC(=N)N)NC(=O)[C@H](C)NC(=O)[C@H](C)NC(=O)[C@H](CCC(N)=O)NC(=O)[C@H](CCC(=O)O)NC(=O)[C@H](CCC(=O)O)NC(=O)[C@H](CC(C)C)NC(=O)[C@H](Cc1ccc(O)cc1)NC(=O)[C@H](CO)NC(=O)[C@H](CO)NC(=O)[C@@H](NC(=O)[C@H](CC(=O)O)NC(=O)[C@H](CO)NC(=O)[C@@H](NC(=O)[C@H](Cc1ccccc1)NC(=O)[C@@H](NC(=O)CNC(=O)[C@H](CCC(=O)O)NC(=O)[C@H](C)NC(=O)CCc1cnc[nH]1)[C@@H](C)O)[C@@H](C)O)C(C)C)C(=O)N[C@@H](C)C(=O)N[C@@H](Cc1c[nH]c2ccccc12)C(=O)N[C@@H](CC(C)C)C(=O)N[C@H](C(=O)N[C@@H](CCCNC(=N)N)C(=O)NCC(=O)N[C@@H](CCCNC(=N)N)C(=O)N[C@@H](CCCCNC(=O)COCCOCCNC(=O)COCCOCCNC(=O)CC[C@H](NC(=O)CCCCCCCCCCCCCCCCC(=O)O)C(=O)O)C(=O)NCC(=O)NCC(=O)N[C@@H](CO)C(=O)N[C@@H](CCCCNC(=O)[C@H](CCCCNc1c(NCCCCCN(O)C(=O)CCC(=O)NCCCCCN(O)C(=O)CCC(=O)NCCCCCN(O)C(C)=O)c(=O)c1=O)Nc1c(NCCCCCN(O)C(=O)CCC(=O)NCCCCCN(O)C(=O)CCC(=O)NCCCCCN(O)C(C)=O)c(=O)c1=O)C(=O)O)C(C)C [zirconium-89 labelled] | ex vivo gamma counting | male Sprague-Dawley rats, duodenum | intravenous, 1 nmol, 24 h |  | tissue uptake | 0.263 %ID/g |
| O=C(O)CCCOc1ccc(F)cc1-c1cc(-c2ccccc2C(F)(F)F)n(-c2ccccc2)n1 | item: Ca | Crl:CD(SD) rats, male, blood | iv, 25 µg/kg, 14 days |  | blood chemistry | 9.7 ± 0.3 mg/dL |

| SMILES | test | test system | setting | scale | quantity | value |
| --- | --- | --- | --- | --- | --- | --- |
| CC[C@H](C)[C@@H]1NC(=O)[C@@H]2CCCN2C(=O)[C@H](CC(C)C)NC(=O)[C@H](CC(C)C)NC(=O)CNC(=O)[C@@H](NC(=O)[C@@H](NC(=O)[C@H](CC(=O)O)NC(=O)CNC(=O)[C@@H](NC(=O)[C@H](C)NC(=O)CNC(=O)[C@H](CCCCN)NC(=O)[C@H](CC(C)C)NC(=O)[C@H](CC(C)C)NC(=O)[C@H](CCCCN)NC(=O)CNC(=O)[C@@H](NC(=O)[C@@H](N)CC(C)C)C(C)C)C(C)C)C(C)C)CSSC[C@@H](C(=O)O)NC1=O |  | female C57BL/6 mice, plasma | intravenous, 10 mg/kg, two-compartment model |  | distribution half-life | 8.4 ± 1.2 min |
| Clc1ccc(-c2cc(Cl)c(Cl)cc2Cl)cc1Cl |  | whole cow milk | 2000 nM nominal |  | dose fraction in milk fat | 88.2% |
| CC(C)[C@@H]1CC[C@@H](C)C[C@@H]1O | acute oral toxicity OECD | Swiss albino mice, serum | oral, 1000 mg/kg |  | HDL cholesterol | 27.2 ± 2 mg/dL |
| CO[C@H]1C[C@@H]2CC[C@@H](C)[C@@](O)(O2)C(=O)C(=O)N2CCCC[C@H]2C(=O)O[C@H]([C@H](C)C[C@@H]2CC[C@@H](OC(=O)NCCOCCOCCOCCOCCOCCOCCOCCOCCC(=O)N3CCc4cc(Cn5nc(-c6ccc7oc(N)nc7c6)c6c(N)ncnc65)ccc4C3)[C@H](OC)C2)C[C@@H](O)[C@H](C)/C=C(\C)[C@@H](O)[C@@H](OC)C(=O)[C@H](C)C[C@H](C)/C=C/C=C/C=C/1C | phase 1 dose escalation, item: mucositis | advanced solid tumour patients | intravenous, 8 mg weekly, grade ≥3 |  | TRAE incidence | 0% |
| C=CC(=O)Nc1cc(Nc2nccc(Nc3cc(Cl)c(F)cc3C(C)(C)O)n2)c(OC)cc1N1CC[C@@H](N(C)C)C1 |  | human patients | oral, 400 mg, treatment-emergent adverse events |  | patients with pneumonia | 20% |
| [O-][S+]1CCc2nc(N3CCC(c4ncc(Cl)cn4)CC3)nc(NC3(CO)CCC3)c21 (stereo not drawn) | item: abdominal distension | healthy male humans | 12 mg twice daily |  | adverse event incidence | 0% |
| NC(=O)[C@H]1CCN(c2ncnc(N)c2F)C[C@@H]1N1CCC[C@@H](Nc2cc(Cl)cc(C(F)(F)F)c2)C1=O |  | B-cell malignancy patients | oral, 164 mg twice daily, dose |  | grade ≥3 leukopenia | 0% |
| C[C@]1(CO)Cc2ncn(-c3ccc(C#N)c(Cl)c3)c2C(=O)O1 |  | human | 40 mg single dose |  | subjects with drug-related orthostatic hypotension | 0% |
| CC(C)C[C@H](NC(=O)[C@H](CCCCN)NC(=O)OCC1c2ccccc2-c2ccccc21)C(=O)N[C@H](C(=O)N[C@@H](Cc1ccccc1)C(=O)N[C@@H](Cc1ccccc1)C(=O)N[C@@H](CCCCN)C(=O)NCC(=O)N[C@@H](Cc1ccccc1)C(=O)N[C@@H](C)C(=O)N[C@@H](Cc1c[nH]c2ccccc12)C(=O)N[C@@H](CC(N)=O)C(=O)N[C@H](C(=O)N[C@H]1CSSC[C@@H](C(=O)N[C@@H](Cc2c[nH]cn2)C(=O)N[C@@H](CCCNC(=N)N)C(=O)N[C@@H](CCCNC(=N)N)C(=O)N[C@@H](C)C(=O)N[C@@H](CC(N)=O)C(N)=O)NC(=O)[C@H](C(C)C)NC(=O)[C@H](CCCNC(=N)N)NC(=O)[C@H](C(C)C)NC(=O)CNC(=O)[C@H](CC(N)=O)NC(=O)[C@H](CCCNC(=N)N)NC(=O)[C@H](Cc2ccc(O)cc2)NC(=O)[C@H](C(C)C)NC1=O)C(C)C)C(C)C | circular dichroism, item: α-Helix | PBS | 80 µM, pH 7.4, added: LPS 1 µM |  | secondary structure content | 5.99% |
| COc1cc2c(Oc3ccc4[nH]c(C)cc4c3F)ccnc2cc1OCC1(N)CC1 |  | paediatric recurrent refractory sarcoma | 10 mg |  | grade 3 Appendicitis | 0% |
| CCCC1CCC(C2CCC(c3ccc(F)c(F)c3)CC2)CC1 (stereo not drawn) |  | human mother-newborn pairs, cord serum |  |  | mean serum concentration | 0.29 ng/mL |
| C=CC(=O)N[C@H]1C=C(C)c2c(-c3cnc4ccccc4c3)c3c(N)ncnc3n2C1 | two-compartment PK model | mouse, plasma | oral |  | clearance | 26.2 mL/min |
| CC(C)Nc1ccnc(Nc2cccc(-c3cccnc3)c2)n1 | item: amylase | mouse, blood | intraperitoneal, 3 mg/kg |  | blood chemistry | 2330 U/L |
| COc1ncnn2ccc(-c3cnc4nc(C)n(Cc5nnc([C@@H](C)F)o5)c4c3)c12 |  | human | oral, dose not given, grade 3 |  | patients with vomiting | 0% |
| C[C@@H]1NC(=O)[C@H](CCCCNC(=O)CO/N=C/C(=O)NCCCC[C@@H]2NC(=O)[C@@H](Cc3ccccc3)NC(=O)[C@H](CC(=O)O)NC(=O)CNC(=O)[C@H](CCCNC(=N)N)NC2=O)NC(=O)CNC(=O)[C@@H]2CCCN2C(=O)[C@H](CCCCNC(=O)CO/N=C/C(=O)NCCCC[C@@H]2NC(=O)[C@@H](Cc3ccccc3)NC(=O)[C@H](CC(=O)O)NC(=O)CNC(=O)[C@H](CCCNC(=N)N)NC2=O)NC(=O)[C@H](CCCCNC(=O)CN2CCCNCCNCCCNCC2)NC(=O)[C@H](CCCCNC(=O)CO/N=C/C(=O)NCCCC[C@@H]2NC(=O)[C@@H](Cc3ccccc3)NC(=O)[C@H](CC(=O)O)NC(=O)CNC(=O)[C@H](CCCNC(=N)N)NC2=O)NC(=O)CNC(=O)[C@@H]2CCCN2C(=O)[C@H](CCCCNC(=O)CO/N=C/C(=O)NCCCC[C@@H]2NC(=O)[C@@H](Cc3ccccc3)NC(=O)[C@H](CC(=O)O)NC(=O)CNC(=O)[C@H](CCCNC(=N)N)NC2=O)NC1=O [copper-64 labelled] |  | normal mice, heart | intravenous, 0.74 MBq, 24 h post-injection |  | tissue uptake | 0.73 ± 0.07 %ID/g |
| CN(C)C(=O)c1cc2cnc(Nc3ccc(N4CCNCC4)cn3)nc2n1C1CCCC1 | item: Leukopenia, AESI | human, HR+/HER2− advanced breast cancer | oral, dose not given, grade 3, CTCAE v4.03 |  | patients with adverse event | 15.5% |
| Oc1c(Cl)cc2c(c1Cl)Oc1cc(Cl)c(Cl)cc1O2 |  | whole cow milk | 20 nM nominal |  | dose fraction in skim milk | 43% |
| COc1ccc([C@@H](O)c2cc(-c3ncnc4cc(N5CCOCC5)ccc34)c(F)cc2Cl)nn1 |  | patients, advanced solid tumours | oral, 400 mg twice daily, treatment-emergent, added: avelumab |  | hypotension incidence | 1% |

For quick reference, copied from above:
| SMILES | test | test system | setting | scale | quantity | value |
| --- | --- | --- | --- | --- | --- | --- |
| Clc1ccc(-c2cc(Cl)c(Cl)cc2Cl)cc1Cl |  | whole cow milk | 2000 nM nominal |  | dose fraction in milk fat | 88.2% |
| CC(C)[C@@H]1CC[C@@H](C)C[C@@H]1O | acute oral toxicity OECD | Swiss albino mice, serum | oral, 1000 mg/kg |  | HDL cholesterol | 27.2 ± 2 mg/dL |
